# Measurements pooled from the literature.
# Parts stem from different laboratories: compare values within a part only.

# Series 1
# Target: Histone acetyltransferase KAT6A, winged helix 2, GST fusion (KAT6A, Homo sapiens, UniProt Q92794, residues 85-181)
# Technique: protein binding microarray
# Molecule type: double-stranded DNA, one strand shown
# Medium: in vitro
# Concentration: not given
# Setting: 8-mer, flanks averaged, mean of 2 arrays, mostly near background
# Baseline: not given
# Reading: higher = stronger binding
# Construct (chain): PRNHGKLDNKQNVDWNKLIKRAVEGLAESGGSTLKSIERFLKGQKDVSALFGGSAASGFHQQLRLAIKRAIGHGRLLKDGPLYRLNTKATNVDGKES
Oligonucleotide,E-score
CCCCCGGC,0.188
CGCCAGAA,0.174
GAAGATGC,-0.0382
CACTTTAG,-0.0396
ACTCGTAG,-0.00562
ACAGGTGG,-0.0366
ATATCGCG,0.184

# Series 2
# Target: RNA binding protein fox-1 homolog 2, RRM domain, GST-SBP tag (RBFOX2, Homo sapiens, UniProt O43251-10, residues 100-194)
# Technique: RNA Bind-n-Seq
# Molecule type: RNA
# Medium: in vitro
# Concentration: 365 nM
# Setting: natural RNA segment, single round, ends assumed
# Baseline: no-protein control
# Reading: higher = stronger binding
# All sequences stand within: GGGAGUUCUACAGUCCGACGAUC … UGGAAUUCUCGGGUGCCAA
# Construct (chain): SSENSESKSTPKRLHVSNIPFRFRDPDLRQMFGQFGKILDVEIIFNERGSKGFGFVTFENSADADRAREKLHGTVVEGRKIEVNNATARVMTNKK
Oligonucleotide,RBNS enrichment (R)
CUGUGCCAUACUGAGGGGUGGUUGUGUUUGCAGGAGGUAGCCACUCUAGAGGCCGCGGCAGAAGGAGCUCUGUGAGUCCAAGGCCAGCCUGUUCUACAUAGUGAGUUCCA,2.03
AGAGUUUCAGAAGCCCCCACAUGGGGGCUCUAGGAAUGCCGGCAUGCUGGUCUUUCCGACCUGGUGCUCUUCUGCUGGGGGACUGAGGCUGGCCCUCAUUCGGGGUCGGG,0.504
GCAAUGAAGUGCUUUGUAUCAGGAAAGUGUACACUAUUGACCUUUUUUCCUGUUCACAAGCUGAGCCAUAUGUACAUAAUCUAGAUUUUGUUUUCAUAGUUUUGCACUUU,0.397
UCCUCUCUCACCCAUUUCGCUUCCAAGACCAUUUGUAGUGAGCGGGUGGAUGCUGUGCUACGUGUGAAAUCUGUCUUUGCCAGGCCUGUCUCAGUGAUUAGCUUUUGGUA,0.588
AAGUUCCAGAGGGCUGACCCUCUCUGCAAAACUCUCCCCUGUCCUCUAGACCCCACCCUGGGUGUAUGUGAGUGUGCAAGGGAAGGUGUUGCAUCCCCAGGGGCUGCCGC,0.249
GCUGCCUUGCUCGCUGUUAUAUUAAGUAGAAGGAGUUUUAGGAUAUUCGAGACAGUGCUUCUGGAGGAGCCAUUGGAAAGACUGGAGAAGAUUCUAAUGGAUAGGAUUUA,1.42

# Series 3
# Target: Sal-like protein 4, full length isoform B (SALL4, Homo sapiens, UniProt Q9UJQ4-2, residues 1-616)
# Technique: universal PBM
# Molecule type: double-stranded DNA, one strand shown
# Medium: in vitro
# Concentration: not given
# Setting: 8-mer, flanks averaged, mean of replicates
# Reading: higher = stronger binding
# Target sequence (chain): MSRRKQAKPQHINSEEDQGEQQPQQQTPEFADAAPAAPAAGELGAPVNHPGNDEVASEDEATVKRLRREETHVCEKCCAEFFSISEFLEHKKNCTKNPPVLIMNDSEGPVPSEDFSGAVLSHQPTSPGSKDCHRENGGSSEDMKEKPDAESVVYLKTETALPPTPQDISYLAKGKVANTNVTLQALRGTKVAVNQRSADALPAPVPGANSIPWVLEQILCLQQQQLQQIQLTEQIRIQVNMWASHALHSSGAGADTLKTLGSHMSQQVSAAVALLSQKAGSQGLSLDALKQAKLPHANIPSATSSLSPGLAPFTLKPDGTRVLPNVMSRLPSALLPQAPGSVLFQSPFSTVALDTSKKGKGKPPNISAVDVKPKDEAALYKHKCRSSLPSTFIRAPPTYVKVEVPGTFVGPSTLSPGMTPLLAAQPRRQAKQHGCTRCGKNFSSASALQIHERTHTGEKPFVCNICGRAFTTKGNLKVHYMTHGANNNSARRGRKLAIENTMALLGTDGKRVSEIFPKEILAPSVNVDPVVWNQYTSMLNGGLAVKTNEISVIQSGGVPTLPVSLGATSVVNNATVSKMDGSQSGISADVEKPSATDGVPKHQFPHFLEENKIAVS
Oligonucleotide,E-score
CAAAGAGG,-0.198
CGAGGGTC,-0.369
GACTGCGC,-0.141
GCTTGAGA,-0.141
CAAGACGA,-0.0365

# Single results of other studies
Substance,target,test,test system,setting,how to read,measurement,result
"PhoQ, residues 284 288 289 292 302 303 SSLVEF","PhoP, residues 12 14 15 18 19 SQCLL (Escherichia coli, UniProt P23836)","Sort-seq, refers to: YFP reporter",E. coli,"PhoQ-PhoP variant library, with: 10 µM Mg2+","baseline: high Mg2+ state, higher = stronger signaling",fold induction,13.6

# Excerpt of the above (series 1):
Oligonucleotide,E-score
CGCCAGAA,0.174
ACAGGTGG,-0.0366
